Results from different studies.
Each numbered part is a random draw from the data of one study; scales do not carry over between parts.

Sample 1
Target: Interferon regulatory factor 7, full length, phosphomimetic (IRF7, Homo sapiens, UniProt Q92985, residues 1-503, S101K/S471D/S472D/S475D/S476D/S477D/S483D/S484D/S487D)
Sequence of UniProt Q92985 (whole entry, unmodified, looked up): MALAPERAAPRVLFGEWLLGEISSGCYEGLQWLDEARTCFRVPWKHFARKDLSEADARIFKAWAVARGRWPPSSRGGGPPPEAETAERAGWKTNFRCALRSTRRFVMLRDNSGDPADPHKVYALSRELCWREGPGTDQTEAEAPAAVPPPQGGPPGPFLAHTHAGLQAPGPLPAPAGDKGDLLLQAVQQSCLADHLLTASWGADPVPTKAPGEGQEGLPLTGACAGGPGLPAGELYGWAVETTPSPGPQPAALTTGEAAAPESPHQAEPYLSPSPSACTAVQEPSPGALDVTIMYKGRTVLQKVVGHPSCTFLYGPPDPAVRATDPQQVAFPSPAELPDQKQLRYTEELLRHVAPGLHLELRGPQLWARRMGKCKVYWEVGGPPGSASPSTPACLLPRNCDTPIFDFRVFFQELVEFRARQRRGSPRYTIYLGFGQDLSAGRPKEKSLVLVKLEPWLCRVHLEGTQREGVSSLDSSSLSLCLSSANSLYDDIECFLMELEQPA
Technique: protein-binding microarray
Molecule type: double-stranded DNA, one strand shown
Matrix: in vitro
Tested at: 250 nM
Notes: 60-bp whole probe
Added: salmon DNA 0.4 mg/ml
Relative to: random background probes
Direction: higher = stronger binding
Constant ends, left off below: GCCTAGCAC … GTCTTGATTCGCTTGACGCTGCTG
| Oligonucleotide | log fluorescence [z-score] |
| --- | --- |
| GACGATTTCGGTCTCGGGACGTGCTAG | 1.02 |
| TTAGGCTTCCTTTCCCTTTAGTGCTAG | 0.598 |
| GACGGTAACGGTATCGGGACGTGCTAG | 0.134 |
| TTAGATCTCGGGTTTCGATTAGTGCTA | 6.88 |
| TCTCCTACAGGTTCTCTGAGAGTGCTA | -0.0704 |
| GACGGTCTCGTTTTCGGGACGTGCTAG | 6.08 |
| ATGTTTTTCATTGTTTTTCAGTGCTAG | 1.59 |
| TATCAGGGCATCCCCTTGAAGTGCTAG | -0.551 |
| ACATTTTTTTCATTATTGTTGTGCTAG | 0.932 |
| TAAGAACTGGGGTATCGATTAGTGCTA | 0.559 |
| TCATCTTTTCATTACTGACTGTGCTAG | 1.01 |
| TTACGTTTCGGTTCCGGTTAGTGCTAG | 7.85 |
| GACGAACTGGGGTATTGAGACGTGCTA | -0.346 |
| TTAGGTGCCCTTTTCCTTTAGTGCTAG | 0.514 |
| TTAGGGATCGACTTTCGGTTAGTGCTA | 1.98 |
| TTAGATTTCAGTTCCGATAAGTGCTAG | 1.04 |

Sample 2
Target: RNA binding protein fox-1 homolog 2, RRM domain, GST-SBP tag (RBFOX2, Homo sapiens, UniProt O43251-10, residues 100-194)
Technique: RNA Bind-n-Seq
Molecule type: RNA
Matrix: in vitro
Tested at: 365 nM
Notes: natural RNA segment, single round, ends assumed
Relative to: no-protein control
Direction: higher = stronger binding
Constant ends, left off below: GGGAGUUCUACAGUCCGACGAUC … UGGAAUUCUCGGGUGCCAA
Target sequence (chain): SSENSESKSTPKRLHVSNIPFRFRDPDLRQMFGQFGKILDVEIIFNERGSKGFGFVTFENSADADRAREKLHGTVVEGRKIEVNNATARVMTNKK
| Oligonucleotide | RBNS enrichment (R) |
| --- | --- |
| UAAAGAUCAGACAUCUCCAAAAACAGAAAAAGUACAAGUAAACAACACACUUUCUCAUGACUUUUAAGAACUGUAGUAAUGUGGCUUAGGAAAUAUAAUGGCCUAAUUGU | 0.569 |
| CCAAAUUGUAUCAAGCAAAAAAUGUAUGGCUAGACAACACCAGUAAGAAUCCUGCUGCUCUGGGGGAGGCGGAAGGAGAGCUGGAAAGUCUGGAGUAUCGCUCCGUUCCC | 1.13 |
| UCUGCUACAUUUCUGUAAGAGAGUUAAGUCUGAGAACUAGUCUCGCAAGUGUAUCUGUUAGUACACUCUGCAAGAGGACUGGACUGCUGGCCUAGGUAUAUGGAUCUCAC | 0.312 |
| UGCAAUAAUUUAGUAGCAUUAGCUUUAGUUACAAAUAUAACUGGAUCUUUCUGCUGACAACUUAGGUUGUAUGAGUUAUGCUUAAAAGCUUUAAAUCUGAUGUUUCCUGU | 0.195 |
| AGCUGUAACAAUCUGUGAGGAUUGAGAGGAUAGGCUGGUGCUUUGAAGAAAGGCCUUGUAAGUGACAAGACAGUCCCCUGGGAAGAAAGAGAAAGGAAAUGGGCUAUUGC | 0.596 |
| UAAAGUCCAGCCUAUUACAAACAAACAAACAAACAAACAAACAAAGGACCUCCAUUUGGAGAAUUGCAAGGAUUUUAUCCUGAAUUAUAGUGUUGGUGAGUUCAAGUCAU | 0.658 |
| CCCGAUAGCUGCCUGGUGCGGCAGCGGCGGCCAAAUCUUCCGUCCUCCCGUGGAUCUCCCGGGGUGGGGGCAGGGCGGGUCCCACGAUGGCCCCCAUUGCCCUCAUCACC | 0.242 |
| UGUACUUGACGGCUGGCCUCCAGGGUCUCUCUUGCUUUGUACUGGUUCCCCUCUUUACCUUCACCAUUCGCUGCUUCUGCCAAGUCUGUGAAGCCGUCCUUUGUAGGAUG | 0.717 |
| CCUCUGCAGAGGCUGCUGAAGAAGAGUGGGUCAGCUGCAUCCUGGCUGAACCUUUAAUAGGGGACCCUGGGGACCCAGCAGUAGCACGAGGGCUGCACACACAGGGCGGC | 7.68 |
| CACUGCCUUCGUGAAGGAUGCUCCGAGCCAUGAAACAUGUUCCUAGAUGUCGUUAAUCCCACCCACGUCCACCAUGACAGGCCUGUGUCAGCCUCCCUGAAACACAGCAG | 0.477 |
| AAAGACCUGGAGGACCUUUCCCCUAGGCACCUACACUCCUCCAUUGUCUGUCUAUGUUGUGCCUUAGUGCCUGCACUGCCCCUACCCUUCUGCUGCCUGACCUCUGCAUG | 6.63 |
| GUGGGUUUCUGACAGCCCAUGGGAAUGCCCUGAAACUACUGUAUCUGAUGUUUGUUUUCGAUGAGGUUCCAUGUUUUGUUUUCUUGGGAAUAAAUUAAUAUAUUGUUUUC | 0.929 |

Sample 3
Target: Sal-like protein 4, full length isoform A (SALL4, Homo sapiens, UniProt Q9UJQ4, residues 1-1053)
Sequence of UniProt Q9UJQ4 (whole entry, looked up): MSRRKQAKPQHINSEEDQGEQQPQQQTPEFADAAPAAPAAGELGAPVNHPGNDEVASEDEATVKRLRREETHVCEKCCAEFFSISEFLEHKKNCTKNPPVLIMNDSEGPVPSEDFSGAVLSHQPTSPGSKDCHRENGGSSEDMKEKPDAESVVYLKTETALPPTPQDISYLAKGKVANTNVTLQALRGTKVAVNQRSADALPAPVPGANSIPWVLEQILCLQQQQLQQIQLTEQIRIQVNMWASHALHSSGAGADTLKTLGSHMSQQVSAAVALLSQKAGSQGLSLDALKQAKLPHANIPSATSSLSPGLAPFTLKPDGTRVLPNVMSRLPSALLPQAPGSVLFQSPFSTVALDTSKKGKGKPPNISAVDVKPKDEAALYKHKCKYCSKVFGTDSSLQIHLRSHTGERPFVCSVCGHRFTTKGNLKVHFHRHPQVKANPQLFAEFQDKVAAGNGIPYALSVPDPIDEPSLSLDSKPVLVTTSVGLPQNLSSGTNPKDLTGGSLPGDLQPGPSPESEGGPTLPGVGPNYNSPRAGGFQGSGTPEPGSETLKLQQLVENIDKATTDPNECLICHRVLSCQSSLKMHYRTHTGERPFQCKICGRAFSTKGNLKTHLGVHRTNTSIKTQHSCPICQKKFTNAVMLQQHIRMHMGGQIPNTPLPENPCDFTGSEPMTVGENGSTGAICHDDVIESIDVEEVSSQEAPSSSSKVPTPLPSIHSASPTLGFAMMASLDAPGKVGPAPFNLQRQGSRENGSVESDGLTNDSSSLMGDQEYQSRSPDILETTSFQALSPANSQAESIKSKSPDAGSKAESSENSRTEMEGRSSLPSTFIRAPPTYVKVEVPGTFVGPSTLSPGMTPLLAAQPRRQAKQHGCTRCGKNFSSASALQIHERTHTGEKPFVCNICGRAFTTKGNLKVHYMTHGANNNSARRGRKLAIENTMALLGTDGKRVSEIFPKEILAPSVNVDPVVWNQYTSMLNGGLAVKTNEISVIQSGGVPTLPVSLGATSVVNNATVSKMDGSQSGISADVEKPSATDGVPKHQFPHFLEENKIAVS
Technique: universal PBM
Molecule type: double-stranded DNA, one strand shown
Matrix: in vitro
Tested at: 600 nM
Notes: 8-mer, flanks averaged, mean of replicates
Direction: higher = stronger binding
| Oligonucleotide | E-score |
| --- | --- |
| ACGTACTG | 0.0114 |
| GCATATGC | 0.0906 |
| AACTTTGA | 0.127 |
| CGTTGAAA | -0.023 |
| TATGGAAA | 0.323 |
| ACCTCGAA | 0.0426 |
| CCTGCGCC | -0.248 |
| GAGGAGGC | -0.364 |
| GCTGCACA | -0.293 |
| GAGGTTCA | -0.0111 |
| AGCATCGA | 0.0809 |
| ACTTGGCA | -0.0518 |
| TACAGACA | 0.2 |
| AATGATAT | 0.364 |
| AAACGTAA | 0.282 |
| GACTCGCC | -0.242 |
| AACGCAAG | -0.0166 |
| GTGGCCAC | -0.197 |
| ATCCCGGC | -0.215 |
| GCCCGGGC | -0.258 |
| CTCCCGGA | -0.305 |
| AAACGCGC | -0.305 |
| CTACACAC | 0.0931 |
| AAGTAACA | 0.185 |
| AGGGACTA | -0.0486 |

Sample 4
Target: RING finger protein unkempt homolog, zinc fingers 1-6, GST-SBP tag (UNK, Homo sapiens, UniProt Q9C0B0, residues 30-357)
Technique: RNA Bind-n-Seq
Molecule type: RNA
Matrix: in vitro
Tested at: not given
Notes: RNA with constant flanks, human and mouse sites, ends assumed
Relative to: input RNA pool
Direction: higher = stronger binding
Constant ends, left off below: GGGAGUUCUACAGUCCGACGAUC … CAACAGAGGAUUGAGCAUCA
Target sequence (chain): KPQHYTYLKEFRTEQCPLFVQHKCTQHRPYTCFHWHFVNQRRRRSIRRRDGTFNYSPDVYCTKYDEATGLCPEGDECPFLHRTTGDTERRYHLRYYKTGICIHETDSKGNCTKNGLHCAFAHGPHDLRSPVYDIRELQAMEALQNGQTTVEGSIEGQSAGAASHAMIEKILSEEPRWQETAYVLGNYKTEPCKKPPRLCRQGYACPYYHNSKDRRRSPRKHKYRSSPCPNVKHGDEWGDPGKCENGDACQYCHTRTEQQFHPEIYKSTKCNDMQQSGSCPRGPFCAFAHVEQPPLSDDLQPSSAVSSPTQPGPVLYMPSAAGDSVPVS
| Oligonucleotide | bound/input enrichment |
| --- | --- |
| AAUGAUGCAUCUAAUAUUGAUGGUUUCUUGGGACCAUGGGCAAAAUAUGUGGAUGAAAAAGAUGUGGCCAAACCUUCAGAAGAAGAACAAAAGGAAUUGGAUGAAAUCACAGCAAAGAGG | 0.266 ratio |
| GUCUGUCUCAAGGGUACUUAAGCAGCAGAGACCCCUGAAUAUAGGGAUUCUACCUUUUCUUUUAGAAUGGGACUUUUCUAGUGUGAGUGUCUAGGUUGGAUAGGAGACCUUGCCAAAUUC | 0.698 ratio |
| UAUACUGGGAUUGAUCAUCACUGGAAAGAAGCUGUUUUUGCCACAUGUGGACAGCAAGUAGACAUUUGGGAUGAACAAAGAACUAAUCCUAUAUGUUCAAUGACCUGGGGAUUUGACAGU | 0.0928 ratio |
| GACAGAACCUUCCAGAAAGAGAUAAGCCUCAAGACCCUGGUGUUCAAAGCUUACAGGUGUUUCUUCAUUGCUCAGUCUUACGUGCUGGUGAAGAAGUGGAGCGAAGCCCUCGUCCUGUAC | 0.115 ratio |
| AAUCGGAAGAAGCUUUCAGAGCUGUUGCGGUACUACACAUCUGCUUCUGGGGACGAGAUGGUUUCUCUGAAGGACUACUGUACCAGAAUGAAGGAAAACCAGAAGCACAUCUAUUUUAUC | 0.118 ratio |
| AAGGUUCAGACUGCAAAUGAAGUUAAGCAAGCUGUUGAACAGCAGAUCCAGAGCCAUAGAGAAACUCAUCAAAAACAGAUCAGUAGUUUGAGAGAUGAAGUAGAAGCAAAAGCAAAACUU | 0.357 ratio |
| GAACUGUUGAGUUCUUAUGAUGUUGAUAUUAAUCAGAUCAUAAAUACCAUAUCUGAAUGGGUAGUUAUGAUUAAGACCAGAGGUGUUAGGCGACCGGAGUUUCAGCCUCUACUAACUGAG | 0.088 ratio |
| GAAGUCGUUUCUCCCCAACUCCCAACUCCUGAAGGUUGCUGCCUGCAUAUUUACUCUUCAUUAGUGCUAUUUUCCUGUAUGUCAUUGUGAGCAAGCUGUGAUUAAUAAAGAAUUGGAGUU | 1.05 ratio |
| GUUGCUGCCUUUAUGGACAUGGGUACCAAUUGCUUUUUGUAAUAUGGUAAAAAUGUGAGCUAGCACUUCUGCAUUGAUUUUUUUUUUUUUGUUUAACAUGUAUUCAGAUUGAGAAUAUGA | 0.483 ratio |
| ACAUCUCAUAUUUCGGCACAGUCCUUUUUUGAAAAUAAAUAUGGUCACUUAGAUAUGUUCAGUACAUUACGUUCCUCUAGCUUGUACAGGCAACAUCCAAAAACUCUUCGAAGCAUUUGU | 0.527 ratio |
| ACAGAGCCUCUUGUCCCACCUUUGUCCCCUGGCUGCUGCCCUCCCAUUCUCCCCCUCCAGUAGUAGCUGGGUGAGACCUGUCCGCCCACCUUCCCUCCACUACAGAACCUGCAGCCGCAA | 0.594 ratio |

For quick reference, copied from above (sample 4):
| Oligonucleotide | bound/input enrichment |
| --- | --- |
| ACAUCUCAUAUUUCGGCACAGUCCUUUUUUGAAAAUAAAUAUGGUCACUUAGAUAUGUUCAGUACAUUACGUUCCUCUAGCUUGUACAGGCAACAUCCAAAAACUCUUCGAAGCAUUUGU | 0.527 ratio |
| UAUACUGGGAUUGAUCAUCACUGGAAAGAAGCUGUUUUUGCCACAUGUGGACAGCAAGUAGACAUUUGGGAUGAACAAAGAACUAAUCCUAUAUGUUCAAUGACCUGGGGAUUUGACAGU | 0.0928 ratio |
| ACAGAGCCUCUUGUCCCACCUUUGUCCCCUGGCUGCUGCCCUCCCAUUCUCCCCCUCCAGUAGUAGCUGGGUGAGACCUGUCCGCCCACCUUCCCUCCACUACAGAACCUGCAGCCGCAA | 0.594 ratio |
| AAUGAUGCAUCUAAUAUUGAUGGUUUCUUGGGACCAUGGGCAAAAUAUGUGGAUGAAAAAGAUGUGGCCAAACCUUCAGAAGAAGAACAAAAGGAAUUGGAUGAAAUCACAGCAAAGAGG | 0.266 ratio |
| AAGGUUCAGACUGCAAAUGAAGUUAAGCAAGCUGUUGAACAGCAGAUCCAGAGCCAUAGAGAAACUCAUCAAAAACAGAUCAGUAGUUUGAGAGAUGAAGUAGAAGCAAAAGCAAAACUU | 0.357 ratio |
| GUCUGUCUCAAGGGUACUUAAGCAGCAGAGACCCCUGAAUAUAGGGAUUCUACCUUUUCUUUUAGAAUGGGACUUUUCUAGUGUGAGUGUCUAGGUUGGAUAGGAGACCUUGCCAAAUUC | 0.698 ratio |
| GAAGUCGUUUCUCCCCAACUCCCAACUCCUGAAGGUUGCUGCCUGCAUAUUUACUCUUCAUUAGUGCUAUUUUCCUGUAUGUCAUUGUGAGCAAGCUGUGAUUAAUAAAGAAUUGGAGUU | 1.05 ratio |
